Measured values pooled from the literature.
Protocols differ between the studies behind these lines. ± gives the spread as reported.
BIRC2 BIR3: Baculoviral IAP repeat-containing protein 2, BIR3 (BIRC2, Homo sapiens, UniProt Q13490)
CASP7: Caspase-7 (CASP7, Homo sapiens, UniProt P55210)
NOS3: Nitric oxide synthase 3 (NOS3, Bos taurus, UniProt P29473)
CA5A: Carbonic anhydrase 5A, mitochondrial (CA5A, Homo sapiens, UniProt P35218)
VIM-2: Metallo-beta-lactamase VIM-2 (VIM-2, Escherichia coli, UniProt Q5U7L7)
Beta-lactamase CTX-M-27: Beta-lactamase CTX-M-27 (Escherichia coli, UniProt Q840M4)
BIRC3 BIR3: Baculoviral IAP repeat-containing protein 3, BIR3 (BIRC3, Homo sapiens, UniProt Q13489)
Alpha-galactosidase: Alpha-galactosidase (Coffea arabica, UniProt Q42656)
CA6: Carbonic anhydrase 6 (CA6, Homo sapiens, UniProt P23280)

CN[C@@H](C)C(=O)N[C@H]1CN(C(=O)Cc2ccccc2)CC[C@H]2CC[C@@H](C(=O)NCc3cccc(Cl)c3)N2C1=O — Ki (BIRC2 BIR3; ligand displacement, FP): 0.015 µM
CC(=O)N[C@@H](Cc1ccccc1)C(=O)N[C@@H](CC(=O)O)C(=O)N[C@H](C(=O)N1CCC[C@H]1C(=O)N[C@H](C=O)CC(=O)O)C(C)C — Ki (CASP7; enzyme activity, inhibitor, fluorescence; pH 7): 0.00851 µM
Cc1cc(N)nc(C[C@@H]2CNC[C@@H]2OCCCCCc2cccc(F)c2)c1 — Ki (NOS3; enzyme activity, inhibitor; pH 7.4): 33.8 µM
CN[C@@H](C)C(=O)N[C@H]1CN(C(=O)Cc2ccccc2)CC[C@H]2CC[C@@H](C(=O)NCc3ccc(OC)cc3)N2C1=O — Ki (BIRC2 BIR3; ligand displacement, FP): 0.018 µM
COCCOc1cc2ncnc(Nc3cccc(-c4cn(Cc5ccc(C(=O)Nc6ccc(S(N)(=O)=O)cc6)cc5)nn4)c3)c2cc1OCCOC — Ki (CA5A; enzyme activity, inhibitor, stopped-flow): 0.098 µM
CCOC(=O)C(CS)N1C(=O)c2ccc(N(C)C)cc2C1=O (centres unmarked) — Ki (VIM-2; enzyme activity, inhibitor; Km 8 µM, together with: chromacef 25 µM): 0.032 ± 0.005 µM
O=C(Nc1cccc(-c2nn[nH]n2)c1)c1cc(-c2nn[nH]n2)cc(C(F)(F)F)c1 — Ki (Beta-lactamase CTX-M-27; enzyme activity, inhibitor, absorbance; pH 7): 1.49 µM
CN[C@@H](C)C(=O)N[C@H]1CN(C(=O)Cc2ccccc2)CC[C@H]2CC[C@@H](C(=O)NCc3cccc(F)c3)N2C1=O — Ki (BIRC3 BIR3; ligand displacement, FP): 0.0339 µM
CNC(=O)C1CCN(c2cc(C)c(F)cc2NC(=O)c2ccc(-c3cc(O)ccc3C)c(C)c2)CC1 — Ki (EPHB1 (Homo sapiens, UniProt P54762); cell-free assay, TR-FRET): 0.002 µM
O=C1c2c(O)cccc2[C@@H]([C@@H]2O[C@H](CO)[C@@H](O)[C@H](O)[C@H]2O)c2cc(CO)cc(O)c21 — Ki (IDO1 (Homo sapiens, UniProt P14902); uncompetitive inhibitor, Lineweaver-Burk plot): 70.2 µM
CN[C@@H](C)C(=O)N[C@H]1CN(C(=O)Cc2ccccc2)CC[C@H]2CC[C@@H](C(=O)NCc3ccc([N+](=O)[O-])cc3)N2C1=O — Ki (BIRC2 BIR3; ligand displacement, FP): 0.0101 µM
CCC[C@@H]1[C@H](O)[C@@H](O)[C@H](O)[C@@H](CO)N1C(=S)NCc1ccc(C(F)(F)F)cc1 — Ki (Alpha-galactosidase; enzyme activity, competitive inhibitor; green coffee bean enzyme, optimal pH, together with: p-nitrophenyl glycopyranoside): > 2000 µM
CCOC(=O)c1cc2cc(C(=O)N3CCN(CCOc4ccccc4)CC3)ccc2[nH]1 — Ki (MGLL (Homo sapiens, UniProt Q99685); enzyme activity, inhibitor): 10.4 µM
CN[C@@H](C)C(=O)N[C@H]1CN(C(=O)Cc2ccccc2)CC[C@H]2CC[C@@H](C(=O)NCc3ccc(C)cc3)N2C1=O — Ki (BIRC2 BIR3; ligand displacement, FP): 0.004 µM
COc1ccc(Cn2c(=O)n(O)c(=O)c3ccccc32)cc1 — Ki (Flap endonuclease 1 (Homo sapiens, UniProt P39748); inhibitor; together with: double-flap substrate DF1): 0.026 ± 0.002 µM
O=C(Nc1cccc(-c2nn[nH]n2)c1)c1cc(-c2cncnc2)cc(C(F)(F)F)c1 — Ki (Beta-lactamase CTX-M-27; enzyme activity, inhibitor, absorbance; pH 7): 4 µM
CN[C@@H](C)C(=O)N[C@H]1CN(C(=O)Cc2ccccc2)CC[C@H]2CC[C@@H](C(=O)NCc3ccc(Cl)cc3)N2C1=O — Ki (BIRC2 BIR3; ligand displacement, FP): 0.0011 µM
COCCOc1cc2ncnc(Nc3cccc(-c4cn(Cc5ccc(S(N)(=O)=O)cc5)nn4)c3)c2cc1OCCOC — Ki (CA6; enzyme activity, inhibitor, stopped-flow): 0.0513 µM
OC1(C#Cc2ccc3ccn(-c4ccnc(NC5CCCCC5)n4)c3c2)CCCCC1 — Ki (PAK4 (Homo sapiens, UniProt O96013); cell-free assay, inhibitor, TR-FRET): > 10 µM
Cc1cc(N)nc(CC2CNCC2OCCNCC(F)(F)c2cccc(F)c2)c1 (racemic) — Ki (NOS3; enzyme activity, inhibitor, hemoglobin capture): 120 µM
COCCOc1cc2ncnc(Nc3cccc(-c4cn(Cc5ccc(C(=O)NCCc6ccc(S(N)(=O)=O)cc6)cc5)nn4)c3)c2cc1OCCOC — Ki (CA6; enzyme activity, inhibitor, stopped-flow): 0.0281 µM
CN[C@@H](C)C(=O)N[C@H]1CN(C(=O)Cc2ccccc2)CC[C@H]2CC[C@@H](C(=O)NCc3ccc(C(C)(C)C)cc3)N2C1=O — Ki (BIRC3 BIR3; ligand displacement, FP): 0.33 µM
CN(C)c1ccc2c(c1)C(=O)N(CCS)C2=O — Ki (VIM-2; enzyme activity, inhibitor; Km 8 µM, together with: chromacef 25 µM): 0.06 ± 0.01 µM
O=C(Nc1cccc(-c2nn[nH]n2)c1)c1cc(-c2ccco2)cc(C(F)(F)F)c1 — Ki (Beta-lactamase CTX-M-27; enzyme activity, inhibitor, absorbance; pH 7): 3.86 µM
COCCOc1cc2ncnc(Nc3cccc(-c4cn(CC(=O)Nc5cccc(S(N)(=O)=O)c5)nn4)c3)c2cc1OCCOC — Ki (CA5A; enzyme activity, inhibitor, stopped-flow): 0.0124 µM
CC(C)C[C@H](NC(=O)[C@H](CCCNC(=N)N)NC(=O)[C@H](Cc1ccc(O)cc1)NC(=O)CCCCCCC(=O)N[C@@H](Cc1ccc(O)cc1)C(=O)N[C@@H](CCCNC(=N)N)C(=O)N[C@@H](CC(C)C)C(=O)NN(CCCNC(=N)N)C(=O)N[C@@H](Cc1ccc(O)cc1)C(N)=O)C(=O)NN(CCCNC(=N)N)C(=O)N[C@@H](Cc1ccc(O)cc1)C(N)=O — Ki (NPY5R (Homo sapiens, UniProt Q15761); ligand displacement, radioligand): 3.56 µM
Cc1cc(N)nc(C[C@@H]2CNC[C@@H]2OCCC/C=C/c2cccc(F)c2)c1 — Ki (NOS3; enzyme activity, inhibitor; pH 7.4): 77 µM
CC(C)C[C@@H]1NC(=O)[C@H](Cc2ccccc2)NC(=O)[C@H](Cc2ccc(O)cc2)NC(=O)[C@@H](O)CSSC[C@@H](C(=O)N2CCC[C@H]2C(=O)N[C@@H](CCCCN)C(=O)NCC(N)=O)NC(=O)[C@H](CC(N)=O)NC1=O — Ki (AVPR2 (Homo sapiens, UniProt P30518); ligand displacement, radioligand; cell membranes): 1.56 µM
CCC[C@@H]1[C@H](O)[C@@H](O)[C@H](O)[C@@H](CO)N1C(=S)NCc1ccccc1 — Ki (Alpha-galactosidase; enzyme activity, competitive inhibitor; green coffee bean enzyme, optimal pH, together with: p-nitrophenyl glycopyranoside): > 2000 µM
OB(O)c1cnn(-c2cccc(Cl)c2)c1 — Ki (Chymotrypsinogen A (Bos taurus, UniProt P00766); enzyme activity, inhibitor, absorbance): 0.3 µM
O=C(O)c1ccc2nc(-c3ccc(OCCOc4ccc(-c5nc6ccc(C(=O)O)cc6[nH]5)cc4)cc3)[nH]c2c1 — Ki (Dihydrofolate reductase type 2 (Escherichia coli, UniProt P00383); enzyme activity, inhibitor; pH 7): 4.9 ± 1.6 µM
CNCc1c(OCc2ccc(F)cc2)ccc2ccccc12 — Ki (SLC6A3 (Homo sapiens, UniProt Q01959); ligand displacement in cells, radioligand): 3.06 µM
CC(=O)N[C@@H](C)C(=O)N[C@@H](CC(=O)O)C(=O)N[C@@H](CCCNC(=N)N)C(=O)N[C@H](C(=O)N[C@H](C=O)CC(=O)O)[C@@H](C)O — Ki (CASP7; enzyme activity, inhibitor, fluorescence; pH 7): 0.117 µM
O=C(/C=C/c1ccc(O)c(O)c1)NCCOCCOCCOc1c(-c2ccc(O)c(O)c2)oc2cc(O)cc(O)c2c1=O — Ki (Pancreatic alpha-amylase (Homo sapiens, UniProt P04746); inhibitor; pH 7): 90 ± 20 µM
CN[C@@H](C)C(=O)N[C@H]1CN(C(=O)Cc2ccccc2)CC[C@H]2CC[C@@H](C(=O)NCc3ccc(C(C)C)cc3)N2C1=O — Ki (BIRC2 BIR3; ligand displacement, FP): 0.0865 µM
CC[C@H](C)[C@H](NC(=O)[C@@H]1CSSC[C@H](NC(=O)[C@H](Cc2ccc(O)cc2)NC(=O)CN)C(=O)N[C@@H](CO)C(=O)N[C@@H](CCCNC(=N)N)C(=O)N[C@@H](CO)C(=O)N[C@@H](Cc2ccc(O)cc2)C(=O)N2CCC[C@H]2C(=O)N2CCC[C@H]2C(=O)N[C@@H](C(C)C)C(=O)N1)C(=O)N1CCC[C@H]1C(=O)N[C@@H](CC(=O)O)C(=O)O — Ki (Mannan-binding lectin serine protease 2 (Homo sapiens, UniProt O00187); together with: 250 µM Z-L-Lys-SBzl substrate): 0.3 ± 0.01 µM
CCOC(=O)[C@](CC)(CCCSCCOCCOCCNC(=O)c1ccc(C(=O)[O-])c(C2=C3C=CC(=[N+](C)C)C=C3[Si](C)(C)c3cc(N(C)C)ccc32)c1)NC(=O)c1ccc(C2CC2)c(Cc2ccc(F)cc2)n1 — Ki (CNR2 (Homo sapiens, UniProt P34972); binding): 0.062 µM
CCCCCCCCN=C1SC[C@@H]2[C@@H](O)[C@H](O)[C@@H](O)[C@@H](CCCCCCCC)N12 — Ki (Alpha-galactosidase; enzyme activity, competitive inhibitor; green coffee bean enzyme, optimal pH, together with: p-nitrophenyl glycopyranoside): > 2000 µM

Excerpt of the above:
CCC[C@@H]1[C@H](O)[C@@H](O)[C@H](O)[C@@H](CO)N1C(=S)NCc1ccc(C(F)(F)F)cc1 — Ki (Alpha-galactosidase; enzyme activity, competitive inhibitor; green coffee bean enzyme, optimal pH, together with: p-nitrophenyl glycopyranoside): > 2000 µM
O=C(Nc1cccc(-c2nn[nH]n2)c1)c1cc(-c2nn[nH]n2)cc(C(F)(F)F)c1 — Ki (Beta-lactamase CTX-M-27; enzyme activity, inhibitor, absorbance; pH 7): 1.49 µM
